Measurements of several laboratories.
Organism: Candida albicans

With `CC(=NNC(=S)N1CCCCCC1)c1ccccn1` the IC50 was 1240 nM (biofilm formation, XTT; SC5314; 24 h, 37 °C).
The MIC of `CC[C@H](C)C[C@H](C)CCCCCCCCC(=O)N[C@H]1C[C@@H](O)[C@@H](NCCN)NC(=O)[C@@H]2[C@@H](O)CCN2C(=O)[C@H]([C@H](O)CCN)NC(=O)[C@H]([C@H](O)[C@@H](O)c2ccc(O)cc2)NC(=O)[C@@H]2C[C@@H](O)CN2C(=O)[C@H]([C@@H](C)O)NC1=O` is reported as 0.2 µg/mL (ATCC 90028, RPMI 1640, 0.165 M MOPS; 24 h, 35 °C, 100% inhibition endpoint).
For `CCCCCCCCCCCCCCC(O)C[N+](C)(CCO)CCO` (stereo not shown), the IC50 was ~9560 nM (biofilm formation, XTT; SC5314; 24 h, 37 °C).
For `pneumocandin K`, the MIC was 0.2 µg/mL (broth microdilution, resazurin; ATCC 10231; 24 h, 35 °C).
With `CC[C@H](C)[C@H](NC(=O)CN)C(=O)NCC(=O)N[C@@H](C)C(=O)N[C@H](C(=O)N[C@@H](CC(C)C)C(=O)N[C@@H](CCCCN)C(=O)N[C@H](C(=O)N[C@@H](CC(C)C)C(=O)N[C@H](C(=O)N[C@H](C(=O)NCC(=O)N[C@@H](CC(C)C)C(=O)N1CCC[C@H]1C(=O)N[C@@H](C)C(=O)N[C@@H](CC(C)C)C(=O)N[C@H](C(=O)N[C@@H](CO)C(=O)N[C@@H](Cc1c[nH]c2ccccc12)C(=O)N[C@H](C(=O)N[C@@H](CCCCN)C(=O)N[C@@H](CCCNC(=N)N)C(=O)N[C@@H](CCCCN)C(=O)N[C@@H](CCCNC(=N)N)C(=O)N[C@@H](CCC(N)=O)C(=O)N[C@@H](CCC(N)=O)C(N)=O)[C@@H](C)CC)[C@@H](C)CC)[C@@H](C)O)[C@@H](C)O)C(C)C)C(C)C` the MIC was 3.1 µM (broth microdilution; ATCC 90028; 28 °C).
`CC[C@H](C)[C@H](NC(=O)[C@H](CCCCN)NC(=O)[C@H](CCCCN)NC(=O)[C@H](CC(C)C)NC(=O)[C@@H](NC(=O)[C@H](CCCCN)NC(=O)[C@H](C)NC(=O)[C@H](C)NC(=O)[C@@H](NC(=O)CNC(=O)[C@H](C)NC(=O)[C@@H](NC(=O)[C@@H](NC(=O)[C@@H]1CCCN1C(=O)[C@H](Cc1ccccc1)NC(=O)[C@@H](N)Cc1ccccc1)[C@@H](C)CC)C(C)C)C(C)C)C(C)C)C(=O)N[C@@H](Cc1ccccc1)C(=O)N[C@H]1CSSC[C@@H](C(=O)O)NC(=O)[C@H](CCCCN)NC(=O)[C@H](CCCCN)NC(=O)[C@H](CO)NC(=O)[C@H]([C@@H](C)CC)NC(=O)[C@H]([C@@H](C)O)NC1=O` gave an MBC of > 128 µM (10231; 18 h, 37 °C).
`CC(C)[C@@H]1NC(=O)[C@H](C)OC(=O)[C@@H](C(C)C)NC(=O)[C@@H](C(C)C)OC(=O)[C@H](C(C)C)NC(=O)[C@H](C)OC(=O)[C@@H](C(C)C)NC(=O)[C@@H](C(C)C)OC(=O)[C@H](C(C)C)NC(=O)[C@H](C)OC(=O)[C@@H](C(C)C)NC(=O)[C@@H](C(C)C)OC1=O` gave an IC50 of 363 nM (biofilm formation, XTT; SC5314; 24 h, 37 °C).
The MBC of `CC[C@H](C)[C@H](NC(=O)[C@H](CCCCN)NC(=O)[C@H](CCCCN)NC(=O)[C@H](CC(C)C)NC(=O)[C@@H](NC(=O)[C@H](CCCCN)NC(=O)[C@H](C)NC(=O)[C@H](C)NC(=O)[C@@H](NC(=O)CNC(=O)[C@H](C)NC(=O)[C@@H](NC(=O)[C@H](CCCCN)NC(=O)[C@@H]1CCCN1C(=O)[C@H](Cc1ccccc1)NC(=O)[C@@H](N)Cc1ccccc1)C(C)C)C(C)C)C(C)C)C(=O)N[C@@H](Cc1ccccc1)C(=O)N[C@H]1CSSC[C@@H](C(=O)O)NC(=O)[C@H](CCCCN)NC(=O)[C@H](CCCCN)NC(=O)[C@H](CO)NC(=O)[C@H]([C@@H](C)CC)NC(=O)[C@H]([C@@H](C)O)NC1=O` is reported as > 128 µM (10231; 18 h, 37 °C).
With `CC[C@H](C)[C@H](NC(=O)CNC(=O)[C@H](CC(=O)O)NC(=O)[C@H](CCCNC(=N)N)NC(=O)[C@@H](NC(=O)[C@H](CC(N)=O)NC(=O)[C@H](CCCNC(=N)N)NC(=O)CNC(=O)[C@@H](NC(=O)[C@H](CCCCN)NC(=O)[C@H](CCC(=O)O)NC(=O)[C@@H](NC(=O)[C@H](CCCCN)NC(=O)[C@H](CCCCN)NC(=O)[C@H](Cc1ccccc1)NC(=O)[C@@H](NC(=O)[C@H](CCCCN)NC(=O)[C@H](Cc1c[nH]c2ccccc12)NC(=O)[C@@H](N)CCCCN)[C@@H](C)CC)[C@@H](C)CC)C(C)C)C(C)C)C(=O)N[C@H](C(=O)N[C@@H](CCCCN)C(=O)N[C@@H](C)C(=O)NCC(=O)N1CCC[C@H]1C(=O)N[C@@H](C)C(=O)N[C@H](C(=O)N[C@@H](CCC(N)=O)C(=O)N[C@H](C(=O)N[C@H](C(=O)NCC(=O)N[C@@H](CCC(N)=O)C(=O)N[C@@H](C)C(=O)N[C@H](C(=O)N[C@@H](CO)C(=O)N[C@H](C(=O)N[C@@H](C)C(=O)N[C@@H](CCCCN)C(N)=O)[C@@H](C)CC)[C@@H](C)O)C(C)C)C(C)C)C(C)C)[C@@H](C)CC` the MIC was > 200 µg/mL (broth microdilution; ATCC 90028; 20 h, 37 °C).
For `CC[C@H](C)[C@H](NC(=O)[C@H](CCCCN)NC(=O)[C@H](CCCCN)NC(=O)[C@@H](NC(=O)[C@@H](NC(=O)[C@H](CC(=O)O)NC(=O)[C@H](Cc1ccccc1)NC(=O)[C@H](CC(C)C)NC(=O)CN)[C@@H](C)CC)[C@@H](C)CC)C(=O)N[C@@H](C)C(=O)N[C@@H](CCC(=O)O)C(=O)N[C@@H](CO)C(=O)N[C@@H](Cc1ccccc1)C(N)=O`, the MIC was 32 µg/mL (broth microdilution, XTT; SC5314; 48 h, pH 7.4, 37 °C, over 90% growth inhibition, RPMI).

A few entries again:
`CC[C@H](C)[C@H](NC(=O)[C@H](CCCCN)NC(=O)[C@H](CCCCN)NC(=O)[C@H](CC(C)C)NC(=O)[C@@H](NC(=O)[C@H](CCCCN)NC(=O)[C@H](C)NC(=O)[C@H](C)NC(=O)[C@@H](NC(=O)CNC(=O)[C@H](C)NC(=O)[C@@H](NC(=O)[C@@H](NC(=O)[C@@H]1CCCN1C(=O)[C@H](Cc1ccccc1)NC(=O)[C@@H](N)Cc1ccccc1)[C@@H](C)CC)C(C)C)C(C)C)C(C)C)C(=O)N[C@@H](Cc1ccccc1)C(=O)N[C@H]1CSSC[C@@H](C(=O)O)NC(=O)[C@H](CCCCN)NC(=O)[C@H](CCCCN)NC(=O)[C@H](CO)NC(=O)[C@H]([C@@H](C)CC)NC(=O)[C@H]([C@@H](C)O)NC1=O` gave an MBC of > 128 µM (10231; 18 h, 37 °C).
